Measured values of several laboratories.
Each numbered part is a random draw from the data of one study; scales do not carry over between parts. Changes are numbered by the printed parent chain.

Study 1 — method: protein binding microarray; form: double-stranded DNA, one strand shown; matrix: in vitro; concentration: not given; reference: not given; reading: higher = stronger binding
Target: Histone acetyltransferase KAT6A, winged helix 2, GST fusion (KAT6A, Homo sapiens, UniProt Q92794, residues 85-181)
Notes: 8-mer, flanks averaged, mean of 2 arrays, mostly near background
Residues (chain): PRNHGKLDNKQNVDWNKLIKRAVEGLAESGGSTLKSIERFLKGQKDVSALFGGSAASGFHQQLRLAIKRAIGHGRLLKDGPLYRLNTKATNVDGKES
With `CATCGGGG` the E-score was 0.0234.
For `AACATATT`, the E-score was -0.0869.
`ATGGCTCG` gave an E-score of 0.0406.
The E-score of `CGCCTGGA` is reported as 0.0687.
The E-score of `TCCAGGGA` is reported as -0.106.
The E-score of `AAGTTAGC` is reported as -0.0428.
For `CAGACCCA`, the E-score was 0.00529.
`GCTGACCC` has an E-score of -0.0297.
For `AATTGACC`, the E-score was 0.0638.
`CAAGGAGG` gave an E-score of -0.0342.
The E-score of `AATGTTTC` is reported as -0.0413.
`CTAGTCTA` gave an E-score of -0.212.
For `AGGAATCG`, the E-score was -0.0159.
The E-score of `ACACTATA` is reported as -0.106.
For `CCACTCCA`, the E-score was 0.0258.
`CAACGTCC` has an E-score of -0.206.

Study 2 — method: DHFR PCA, deep sequencing; matrix: yeast; added: (+)-ABA 0.39 µM; reference: wild-type fitted maximum; reading: higher = stronger binding
Target: ABI1, truncated, D143A, DHFR fusion (Arabidopsis thaliana)
Notes: methotrexate growth selection, single substitutions
Parent: PYL1, truncated, DHFR fusion (Arabidopsis thaliana); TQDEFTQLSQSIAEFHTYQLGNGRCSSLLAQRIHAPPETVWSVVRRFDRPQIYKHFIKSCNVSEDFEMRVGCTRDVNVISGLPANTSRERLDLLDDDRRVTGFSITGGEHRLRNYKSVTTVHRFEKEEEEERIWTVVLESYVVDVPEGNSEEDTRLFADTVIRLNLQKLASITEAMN; partner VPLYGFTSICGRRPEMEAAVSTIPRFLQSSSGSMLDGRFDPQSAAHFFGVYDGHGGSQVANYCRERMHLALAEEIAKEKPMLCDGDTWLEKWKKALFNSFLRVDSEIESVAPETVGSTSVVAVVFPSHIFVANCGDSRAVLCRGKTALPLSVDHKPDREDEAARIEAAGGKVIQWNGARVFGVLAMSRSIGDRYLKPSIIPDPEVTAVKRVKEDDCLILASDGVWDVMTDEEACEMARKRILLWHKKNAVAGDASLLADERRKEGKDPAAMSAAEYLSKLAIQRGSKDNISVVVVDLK
`I57E`: “relative binding score” -3.66%.
`F103P` — result for “relative binding score”: -18.4%.
`D75V`: “relative binding score” 67.7%.
`I79A`: “relative binding score” 24.7%.
Under “relative binding score”, `V143L` is recorded as -14.5%.
Under “relative binding score”, `S63M` is recorded as 16.7%.
Under “relative binding score”, `D65L` is recorded as -2.24%.
Under “relative binding score”, `V44G` is recorded as -9.93%.
`D95H` — result for “relative binding score”: -12.1%.
Under “relative binding score”, `Q7A` is recorded as 51.3%.
Under “relative binding score”, `T17R` is recorded as 5.99%.
For `V121L`, “relative binding score” read 1.46%.
`L8N` — result for “relative binding score”: -9.84%.
`T6G`: “relative binding score” 46.8%.

Study 3 — target: CCNE1, cyclin fold, Cln2 fusion (human); method: yeast growth competition, sequencing; matrix: yeast; notes: weak parent motif; reference: not given; reading: higher = stronger binding
Parent: WEE1 docking peptide (human); HKTFRKLRLFDTP
Under “normalised enrichment score”, `F10T` is recorded as 0.521.
`K6F` — result for “normalised enrichment score”: -0.977.
For `T3S`, “normalised enrichment score” read 0.0417.
`K2S`: “normalised enrichment score” 0.3.
Under “normalised enrichment score”, `L7M` is recorded as -0.665.
`H1L`: “normalised enrichment score” -0.288.
`L9V`: “normalised enrichment score” 0.516.
`T12H` — result for “normalised enrichment score”: 1.48.
For `R8F`, “normalised enrichment score” read 0.237.
Under “normalised enrichment score”, `R5W` is recorded as 0.989.
For `K6E`, “normalised enrichment score” read 0.438.
For `K2N`, “normalised enrichment score” read 1.26.
`D11P` — result for “normalised enrichment score”: 0.796.
Under “normalised enrichment score”, `K6M` is recorded as -0.259.
Under “normalised enrichment score”, `L9Y` is recorded as 1.16.
`R5K`: “normalised enrichment score” 0.357.
`T12F`: “normalised enrichment score” 1.36.
`P13K` — result for “normalised enrichment score”: 0.195.
For `H1I`, “normalised enrichment score” read 1.4.
`K2L` — result for “normalised enrichment score”: 0.87.
Under “normalised enrichment score”, `F4D` is recorded as 0.358.
For `D11K`, “normalised enrichment score” read 0.485.
Under “normalised enrichment score”, `H1E` is recorded as 0.408.
Under “normalised enrichment score”, `K6Q` is recorded as 0.374.

Study 4 — method: RNA Bind-n-Seq; form: RNA; matrix: in vitro; concentration: 365 nM; reference: no-protein control; reading: higher = stronger binding
Target: RNA binding protein fox-1 homolog 2, RRM domain, GST-SBP tag (RBFOX2, Homo sapiens, UniProt O43251-10, residues 100-194)
Notes: natural RNA segment, single round, ends assumed
Constant ends, left off below: GGGAGUUCUACAGUCCGACGAUC … UGGAAUUCUCGGGUGCCAA
Residues (chain): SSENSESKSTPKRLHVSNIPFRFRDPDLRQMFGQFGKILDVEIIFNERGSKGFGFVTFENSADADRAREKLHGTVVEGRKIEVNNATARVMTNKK
`AGGACUCACCACCGUGGUCAGACCAUGCCCAGUGUGCCCAGGGCAAAGUUGGAUGGGCAGGUGCAGACGAGGCCCAGCCUUCAUCCUGCUUUCCCUCGCAAGCCCUUCUA` — result for “RBNS enrichment (R)”: 0.204.
`CAUAUUUUGUUUGUUAUCACCAGAGAUGCCUGAACUCAGUUAAGCGAGCAAUUGCUAGUUGUCUUGAGGAGCAUGAGGAAUUCAGGAGCAGAAGGUCAGGAUAGCAUGAG`: “RBNS enrichment (R)” 30.2.
For `UUUUGAAGCUACUAAUUUUAUGUCGAGCUUUAAAGUCCAUAAUUGUUAUCUUCAGAAAAUAUUAUUUGACCUACAGUAUGUCCAAAUCAAUUUAAUAAAAUCGCUUUAUA`, “RBNS enrichment (R)” read 1.28.
For `UUUAUAUUAACCGCCACCUGUGGAUUUUGCAGUAAUUGCUAACACAUGCAGUUUUAAUGGGAAGUGGCUCUGCGCCUAAACGGAGUCCUAACGCUGCAUCAACGGGAGGG`, “RBNS enrichment (R)” read 0.388.
For `AUGGUCCCAUUCAUUCACUAUUGCCCCCAACCCCGGGAUUUUGGGUGGUCUCCACAGCCACCAUCAUACACUCAUCCCGUGUUUUCUUCCAAAAAGUCACCUCAGCAGCC`, “RBNS enrichment (R)” read 0.806.
`GUUUGCCCGUUUCUGAGGUCAGAUGGAUGGAUGUCUGAUGUCUUCCUGUGUUUUCCCUCGAUCUCUCCCCUUGGCCUCCUUUCGCACUCACAUCUUCCCAGGCUGCCUUU`: “RBNS enrichment (R)” 1.57.
`UCUCACUGUUUAAAGAACACACUUUUGAGAUUAUGUGGUCCUAUCCUUGUUUUAAUGAUUAAAAAAAAAAAGACAUUCCAAAUCACAUAAACUUCAGAGGCCUCUGGCUC` — result for “RBNS enrichment (R)”: 0.273.
`CUUCAUGGGAUUGGUGCACCCUGAAGACCACAAAUUAAAUAAAUAUCAUGACUGGCUUUGGGAAAAUCAUGAAAAAUUAAGUCUAUCUUAAACUCUGCAGCUUUCAAGCU` — result for “RBNS enrichment (R)”: 0.318.

Study 5 — method: protein-binding microarray; form: double-stranded DNA, one strand shown; matrix: in vitro; concentration: 2540 nM top; notes: 60-bp whole probe; added: salmon DNA 0.4 mg/ml; reference: random background probes; reading: higher = stronger binding; constant ends, left off below: GCCTAGCAC … GTCTTGATTCGCTTGACGCTGCTG
Target: Interferon regulatory factor 3, full length, phosphomimetic (IRF3, Homo sapiens, UniProt Q14653, residues 1-427, S386D/S396D/S398D/S402D/T404D/S405D)
Construct (chain): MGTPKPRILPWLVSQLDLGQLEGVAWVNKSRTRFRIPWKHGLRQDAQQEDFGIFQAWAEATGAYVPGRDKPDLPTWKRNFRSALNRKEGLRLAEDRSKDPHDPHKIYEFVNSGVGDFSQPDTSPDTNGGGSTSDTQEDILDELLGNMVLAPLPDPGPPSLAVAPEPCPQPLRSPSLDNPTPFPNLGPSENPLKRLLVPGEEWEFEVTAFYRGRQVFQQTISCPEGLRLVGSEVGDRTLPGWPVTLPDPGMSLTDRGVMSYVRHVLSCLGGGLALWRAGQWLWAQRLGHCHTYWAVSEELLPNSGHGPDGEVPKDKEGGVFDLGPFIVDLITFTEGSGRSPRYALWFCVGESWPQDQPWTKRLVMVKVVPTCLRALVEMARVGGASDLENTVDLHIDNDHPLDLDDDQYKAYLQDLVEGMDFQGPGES
`GACGGTCTCCTTTGCCTGACGTGCTAG` — result for “fitted relative affinity”: 1.19 z-score.
`TTATATATCAGTATCGATTAGTGCTAG` — result for “fitted relative affinity”: 1.91 z-score.
`TCAGATGCCTTTCTCTTACTGTGCTAG` — result for “fitted relative affinity”: 4.11 z-score.
For `TCATTTGTTTTTTTCTAACTGTGCTAG`, “fitted relative affinity” read 1.63 z-score.
For `GACGATTTCAGACTTGAGACGTGCTAG`, “fitted relative affinity” read 1.82 z-score.
For `CAGCATGCCTGTCCCTGGGTGTGCTAG`, “fitted relative affinity” read -0.851 z-score.
`TTATGTTTCGACTATCGGTTAGTGCTA`: “fitted relative affinity” 1.98 z-score.
Under “fitted relative affinity”, `TTAGATTTCCGTATCGATTAGTGCTAG` is recorded as 3.57 z-score.
`GACGAGATCGGGACTGGAGACGTGCTA`: “fitted relative affinity” -0.0994 z-score.
`GACGGTCTCCTTATCGTGACGTGCTAG`: “fitted relative affinity” 3.22 z-score.
`GACGGTATCGACACTGGGGACGTGCTA` — result for “fitted relative affinity”: 0.548 z-score.
`TTAGTTCTCAGTTTCGATTAGTGCTAG` — result for “fitted relative affinity”: 4.19 z-score.
`GTCATTATCCTTGTCCCTCCGTGCTAG` — result for “fitted relative affinity”: 2.04 z-score.
For `TTAGATTTCGGGTTTAGATTAGTGCTA`, “fitted relative affinity” read 2.27 z-score.
For `GTCGGACTGCTACTGCTGACGTGCTAG`, “fitted relative affinity” read -0.154 z-score.
`TCAACTCTGTGCTTTCCTACTGTGCTA` — result for “fitted relative affinity”: 0.793 z-score.
`GGATGTCTGTAGCTCATTCTGTGCTAG`: “fitted relative affinity” 0.0338 z-score.
`GACGGATTGGACTTTCGGGACGTGCTA`: “fitted relative affinity” 0.416 z-score.
`GACGATTTCAGTCTCGAGACGTGCTAG`: “fitted relative affinity” 2.51 z-score.

A few entries again (study 1):
For `AACATATT`, the E-score was -0.0869.
The E-score of `AAGTTAGC` is reported as -0.0428.
The E-score of `ACACTATA` is reported as -0.106.
The E-score of `AATGTTTC` is reported as -0.0413.
`GCTGACCC` has an E-score of -0.0297.
